Results of several laboratories.
Protocols differ between the studies behind these lines. Values joined by “and” are separate records of one study, mostly repeats; a detail may differ. Numbers after ± are the reported error.
U2AF2: U2AF2 148-342 (Homo sapiens, UniProt P26368)
Chain of UniProt P26368 (whole entry, looked up): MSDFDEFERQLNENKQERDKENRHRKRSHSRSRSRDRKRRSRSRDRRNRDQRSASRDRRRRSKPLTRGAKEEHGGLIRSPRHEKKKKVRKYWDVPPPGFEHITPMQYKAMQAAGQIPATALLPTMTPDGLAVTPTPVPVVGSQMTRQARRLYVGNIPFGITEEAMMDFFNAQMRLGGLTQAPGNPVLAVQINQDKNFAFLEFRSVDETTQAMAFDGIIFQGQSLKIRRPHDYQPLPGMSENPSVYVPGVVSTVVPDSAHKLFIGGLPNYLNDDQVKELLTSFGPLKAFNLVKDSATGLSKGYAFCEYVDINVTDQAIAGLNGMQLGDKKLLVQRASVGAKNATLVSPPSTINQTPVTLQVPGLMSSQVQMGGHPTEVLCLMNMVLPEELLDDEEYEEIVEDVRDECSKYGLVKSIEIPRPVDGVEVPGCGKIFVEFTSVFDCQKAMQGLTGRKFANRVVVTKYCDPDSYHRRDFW
B1: enzyme W53Y (Thermoplasma volcanium, UniProt Q978S7); chain MAFHGLVKYSDITVEGYPKIQYHGFIGNNRTAMLVAMNGYIDYGCLPNFNSNAVFSSILDKNKGGYFAIFPSDTTDVYVDQYYKEMTNVLVTEFVKNGKIILRLTDFMPDSEYGKISFPEVHRFVESFSEPIDITIDFKPTFNYGQDKPIIEKDQHGFIFTTDKESIGISSEFPLRKNSDRIFGNVKMEPRSSSWIIALYGIHHLFRTTDYKSYLRLQETTDYWRKWASSSSYAGAYHSMVMRSALALKVLFYEPTGLMVAAPTASLPEAIGGERNWDYRFTWIRDTAYVIEALSSIGYKYEATEFLYDMMDMITRDNRIRTIYSIDDSNDLEERIIDYEGYRGSRPVRIGNKAVDQLQIDQYGSIVRAIHSMAKAGGIVNSYLWDFVEQVMAKIEYLWKYPDSSIWEFRTEPKQYVYSKVMSWAAFDSAISMAKDLGLSAPIKQWKSIQDEIKKEVLEKGFDTDTNSFVQYYGSKNIDAALLRLPILGFIPANDEKFLGTLSRIEKELMVDGYLFKRYREDDGLKGDEGSFLMLTFWYIEDLILMKRLKKAREVLESVLEKANHLGLYSEEIDEKSGDFLGNFPQALSHLGVIRVAPKLEEALLKRTSKINS
B2: enzyme (Bacteroides fragilis, UniProt Q5LAA3); chain MAMLEKIQETAAFLKGKMHTSPETAIILGTGLGSLANEITEKYEIKYEDIPNFPVSTVEGHSGKLIFGKLGNKEIMAMQGRFHYYEGYSMKEVTFPVRVMRELGIKTLFVSNASGGTNPEFEIGDLMIITDHINYFPEHPLRGKNIPYGPRFPDMSEAYDKELIRKADAIAAEKGIKVQHGIYIGTQGPTFETPAEYKLFHILGADAVGMSTVPEVIVANHCGIKVFGISVVTDLGVEGKIVEVSHEEVQKAADAAQPKMTTIMRELINRA
B3: enzyme Y157F (Mus musculus, UniProt P60334); chain MERTELLKPRTLADLIRILHELFAGDEVNVEEVQAVLEAYESNPAEWALYAKFDQYRYTRNLVDQGNGKFNLMILCWGEGHGSSIHDHTDSHCFLKLLQGNLKETLFDWPDKKSNEMIKKSERTLRENQCAYINDSIGLHRVENVSHTEPAVSLHLFSPPFDTCHAFDQRTGHKNKVTMTFHSKFGIRTPFTTSGSLENN
B4: enzyme C424A (Methanosarcina mazei, UniProt Q8PVB1); chain MSEQRSVPLREHLLALKPCRHGGLIQETSETYGIPENEILDFSANFNPLGSPFDYPENGLNFEDIIKKSCGKLLEYPDNRYVEFREAAARFVGLGVTPQSIVPGNGSTEIVRLVVESVIEKGDKVLLPWPTFGEYEMQCRITGAEPVCPSQEEVNTLPDEVLEEAKILFICNPNNPTGKLRTREELKVLAERCREHKTLLYVDEAFIELSDPSQSVADLPAENNYVFVMRSLTKDFAIPGIRMGFGIAPPAMADILNTARLSWNLGAIANNTGIALLNIEGGIDSPYLKKAREMILKEGETLKAKIDRIRGFEAGEVNVNFILVDVSKFMLNSSELTARLAARGVLVRDCVSFHGLGKNYIRVAVRTEKENDRLIAAIGDVITEWGREQAKNELQHVIEKASEEGIGGRKTCEYYPCHFEGQNATFCFCPFYPCENEKTGGKWIQSSRGGRVWSCVDCHLVHKKEIAQKILDCLMHEGDTDELVKVAWKEVMEPIL
B5: PYCR2 R119C (Homo sapiens, UniProt Q96C36); chain MSVGFIGAGQLAYALARGFTAAGILSAHKIIASSPEMNLPTVSALRKMGVNLTRSNKETVKHSDVLFLAVKPHIIPFILDEIGADVQARHIVVSCAAGVTISSVEKKLMAFQPAPKVICCMTNTPVVVQEGATVYATGTHALVEDGQLLEQLMSSVGFCTEVEEDLIDAVTGLSGSGPAYAFMALDALADGGVKMGLPRRLAIQLGAQALLGAAKMLLDSEQHPCQLKDNVCSPGGATIHALHFLESGGFRSLLINAVEASCIRTRELQSMADQEKISPAALKKTLLDRVKLESPTVSTLTPSSPGKLLTRSLALGGKKD
B6: spt (Sphingomonas paucimobilis, UniProt Q93UV0); chain TEAAAQPHALPADAPDIAPERDLLSKFDGLIAERQKLLDSGVTDPFAIVMEQVKSPTEAVIRGKDTILLGTYNYMGMTFDPDVIAAGKEALEKFGSGTNGSRMLNGTFHDHMEVEQALRDFYGTTGAIVFSTGYMANLGIISTLAGKGEYVILDADSHASIYDGCQQGNAEIVRFRHNSVEDLDKRLGRLPKEPAKLVVLEGVYSMLGDIAPLKEMVAVAKKHGAMVLVDEAHSMGFFGPNGRGVYEAQGLEGQIDFVVGTFSKSVGTVGGFVVSNHPKFEAVRLACRPYIFTASLPPSVVATATTSIRKLMTAHEKRERLWSNARALHGGLKAMGFRLGTETCDSAIVAVMLEDQEQAAMMWQALLDGGLYVNMARPPATPAGTFLLRCSICAEHTPAQIQTVLGMFQAAGRAVGVIG
B7: enzyme (Lactiplantibacillus plantarum, UniProt Q06115); chain CTAITYQSYNNYFGRNFDYEISYNEMVTITPRKYPLVFRKVENLDHHYAIIGITADVESYPLYYDAMNEKGLCIAGLNFAGYADYKKYDADKVNITPFELIPWLLGQFSSVREVKKNIQKLNLVNINFSEQLPLSPLHWLVADKQESIVIESVKEGLKIYDNPVGVLTNNPNFDYQLFNLNNYRALSNSTPQNSFSEKVDLDSYSRGMGGLGLPGDLSSMSRFVRAAFTKLNSLSMQTESGSVSQFFHILGSVEQQKGLCEVTDGKYEYTIYSSCCDMDKGVYYYRTYDNSQINSVSLNHEHLDTTELISYPLRSEAQYYAVN
B8: bjaI (Bradyrhizobium diazoefficiens, UniProt Q89VI2); chain MIHAISAVNRHLYEDVLEQHFRLRHDIFVEERHWETLRRPDGREVDSYDDEDTVYLLALEGRRVVGGHRLYPTTKPSMMSEVFPHLAAVRGCPSDPLIWEWSRYFVVRDRRDGALNLQLMAAVQEFCLDQGIAQVSAIMETWWLPRFHEAGFVVTPLGLPALVENAWTMAATVDIRRQTLDVLHDRIGMPSIVQQDGPRLDAVARANLCGLAAAQRKSA
B9: UGT76G1 (Stevia rebaudiana, UniProt Q6VAB4); chain MENKTETTVRRRRRIILFPVPFQGHINPILQLANVLYSKGFSITIFHTNFNKPKTSNYPHFTFRFILDNDPQDERISNLPTHGPLAGMRIPIINEHGADELRRELELLMLASEEDEEVSCLITDALWYFAQSVADSLNLRRLVLMTSSLFNFHAHVSLPQFDELGYLDPDDKTRLEEQASGFPMLKVKDIKSAYSNWQILKEILGKMIKQTKASSGVIWNSFKELEESELETVIREIPAPSFLIPLPKHLTASSSSLLDHDRTVFQWLDQQPPSSVLYVSFGSTSEVDEKDFLEIARGLVDSKQSFLWVVRPGFVKGSTWVEPLPDGFLGERGRIVKWVPQQEVLAHGAIGAFWTHSGWNSTLESVCEGVPMIFSDFGLDQPLNARYMSDVLKVGVYLENGWERGEIANAIRRVMVDEEGEYIRQNARVLKQKADVSLMKGGSSYESLESLVSYISSL
B10: enzyme (Arabidopsis thaliana, UniProt Q9C969); chain GSFGMLSRRTLGTDMPVMAQIRSLMAELTNPMSLAQGVVHWQPPQKALEKVKELVWDPIISSYGPDEGLPELRQALLKKLREENKLTNSQVMVTAGANQAFVNLVITLCDAGDSVVMFEPYYFNSYMAFQMTGVTNIIVGPGQSDTLYPDADWLERTLSESKPTPKVVTVVNPGNPSGTYVPEPLLKRIAQICKDAGCWLIVDNTYEYFMYDGLKHCCVEGDHIVNVFSFSKTYGMMGWRLGYIAYSERLDGFATELVKIQDNIPICAAIISQRLAVYALEEGSGWITERVKSLVKNRDIVKEALEPLGKENVKGGEGAIYLWAKLPEGHRDDFKVVRWLAHRHGVVVIPGCASGSPGYLRVSFGGLQEVEMRAAAARLRKGIEELLHHGMVE
B11: enzyme I20A (Nitrosopumilus maritimus, UniProt A9A5X4); chain MDSQKFDSIIFDCDGVLVDATQSYDKTIDKTCRYVLKEFAKIDSITIDHKIIDGFKSSGGFNDEVDLVYAAILSLYTANKLNKKPSEFIYDVISNTDKTGIRSVQSYLESIYDVSEFLSKLGSLGDRHNNPVYSIFDQFFFGPELYGKLFDKQSKFSEEGMISNDKVILSVSLLETLQKEFGKKIAVVTGRGIESIRYSLKDMMDYFDTKNSAFLEDEPRELAKPNPATLIRAIQSMESKNCLYVGDSMEDYMMAKDAAQAGHSTTFCAIVGTSTNPEDRRKLFADSGVEMILESINDIPKVLNLV
Chain of UniProt Q9R7D7 (whole entry, looked up): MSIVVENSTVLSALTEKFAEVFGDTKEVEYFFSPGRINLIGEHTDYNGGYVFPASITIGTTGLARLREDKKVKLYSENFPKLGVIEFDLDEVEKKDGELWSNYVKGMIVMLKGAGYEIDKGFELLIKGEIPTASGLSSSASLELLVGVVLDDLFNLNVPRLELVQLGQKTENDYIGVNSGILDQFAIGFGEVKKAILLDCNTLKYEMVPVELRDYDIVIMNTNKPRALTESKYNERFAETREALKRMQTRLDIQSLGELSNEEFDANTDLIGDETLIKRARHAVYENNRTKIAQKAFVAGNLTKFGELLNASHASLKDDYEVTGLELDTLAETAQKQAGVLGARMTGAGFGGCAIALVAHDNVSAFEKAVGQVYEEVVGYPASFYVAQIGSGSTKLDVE

Molecule	tested on	test	system	conditions	quantity	result
B1 (enzyme W53Y)	OC[C@H]1O[C@H](O[C@H]2O[C@H](CO)[C@@H](O)[C@H](O)[C@H]2O)[C@H](O)[C@@H](O)[C@@H]1O	steady-state kinetics		pH 3.7, 30 °C	kcat/Km	90 M⁻¹ s⁻¹
B2 (enzyme)	OC[C@H]1O[C@@H](n2cnc3c(O)ncnc32)[C@H](O)[C@@H]1O	steady-state kinetics			kcat/Km	42000 M⁻¹ s⁻¹
B3 (enzyme Y157F)	N[C@@H](CS)C(=O)O	steady-state kinetics		pH 7.5, 37 °C	kcat/Km	11.6 M⁻¹ s⁻¹
B4 (enzyme C424A)	Nc1ncnc2c1ncn2[C@@H]1O[C@H](COP(=O)(O)OP(=O)(O)OP(=O)(O)O)[C@@H](O)[C@H]1O	steady-state kinetics		pH 8.5, 25 °C, apparent, anoxic, together with: L-Thr 10 mM	kcat/Km	20 ± 4 M⁻¹ s⁻¹
B5 (PYCR2 R119C)	O=C(O)[C@@H]1CCC=N1	steady-state kinetics		pH 7.5, 37 °C, apparent, together with: NADH 500 µM	kcat/Km	250 ± 80 M⁻¹ s⁻¹
enzyme K123A (Homo sapiens, UniProt Q08623)	O=c1[nH]cc([C@@H]2O[C@H](COP(=O)(O)O)[C@@H](O)[C@H]2O)c(=O)[nH]1	steady-state kinetics		pH 7, 25 °C	kcat/Km	71700 M⁻¹ s⁻¹
enzyme (Parabacteroides distasonis, UniProt A0A7L5EB83)	CC(=O)N[C@H]1[C@H](Oc2ccc([N+](=O)[O-])cc2)O[C@H](CO)[C@@H](O[C@@H]2O[C@H](CO)[C@H](O)[C@H](O)[C@H]2O)[C@@H]1O	steady-state kinetics		pH 6, 50 °C	kcat/Km	13400 M⁻¹ s⁻¹
enzyme (Lactococcus lactis, UniProt Q9R7D7)	Nc1ncnc2c1ncn2[C@@H]1O[C@H](COP(=O)(O)OP(=O)(O)OP(=O)(O)O)[C@@H](O)[C@H]1O	steady-state kinetics		pH 8, 24 °C	kcat/Km	207000 ± 9000 M⁻¹ s⁻¹
B6 (spt)	CCCCCCCCCCCCCCCC(=O)SCCNC(=O)CCNC(=O)[C@H](O)C(C)(C)COP(=O)(O)OP(=O)(O)OC[C@H]1O[C@@H](n2cnc3c(N)ncnc32)[C@H](O)[C@@H]1OP(=O)(O)O	steady-state kinetics		together with: PLP	kcat/Km	21000 M⁻¹ s⁻¹
B7 (enzyme)	CC(C)C[C@H](NC(=O)CC[C@@H](C)[C@H]1CC[C@H]2[C@@H]3[C@H](O)C[C@@H]4C[C@H](O)CC[C@]4(C)[C@H]3C[C@H](O)[C@]12C)C(=O)O	steady-state kinetics		pH 6.2, 37 °C	kcat/Km	617 ± 66.7 M⁻¹ s⁻¹
B8 (bjaI)	CC(C)CC(=O)SCCNC(=O)CCNC(=O)[C@H](O)C(C)(C)COP(=O)(O)OP(=O)(O)OC[C@H]1O[C@@H](n2cnc3c(N)ncnc32)[C@H](O)[C@@H]1OP(=O)(O)O	steady-state kinetics		pH 7.3, together with: 30 µM DCPIP, 331 µM SAM	kcat/Km	21700 ± 5000 M⁻¹ s⁻¹
CAGUUGUGC (ssRNA)	U2AF2	sequencing of bound RNA	RNA	motif only	Kd	2.57 µM
B9 (UGT76G1)	C=C1C[C@@]23CC[C@H]4[C@@](C)(CCC[C@@]4(C)C(=O)O[C@@H]4O[C@H](CO)[C@@H](O)[C@H](O)[C@H]4O)[C@@H]2CC[C@]1(O[C@@H]1O[C@H](CO)[C@@H](O)[C@H](O)[C@H]1O)C3	steady-state kinetics		pH 7.25, 40 °C	kcat/Km	1680 M⁻¹ s⁻¹
B10 (enzyme)	O=C(O)C(=O)Cc1cccc(C(=O)O)c1	steady-state kinetics			kcat/Km	502000 M⁻¹ s⁻¹ and 460000 M⁻¹ s⁻¹ and 472000 M⁻¹ s⁻¹
enzyme (Acinetobacter baumannii, UniProt A0A5P1UDB1)	O=C(O)c1cccc(Cl)c1O	steady-state kinetics		pH 7.5, 37 °C, apparent	kcat/Km	398 M⁻¹ s⁻¹
B11 (enzyme I20A)	N[C@H](COP(=O)(O)O)Cc1c[nH]cn1	steady-state kinetics		pH 7.8, 25 °C	kcat/Km	1520 ± 200 M⁻¹ s⁻¹
GUUUUAAUC (ssRNA)	U2AF2	sequencing of bound RNA	RNA	motif only	Kd	1.47 µM

Excerpt of the above:
Molecule	tested on	test	system	conditions	quantity	result
B9 (UGT76G1)	C=C1C[C@@]23CC[C@H]4[C@@](C)(CCC[C@@]4(C)C(=O)O[C@@H]4O[C@H](CO)[C@@H](O)[C@H](O)[C@H]4O)[C@@H]2CC[C@]1(O[C@@H]1O[C@H](CO)[C@@H](O)[C@H](O)[C@H]1O)C3	steady-state kinetics		pH 7.25, 40 °C	kcat/Km	1680 M⁻¹ s⁻¹
B2 (enzyme)	OC[C@H]1O[C@@H](n2cnc3c(O)ncnc32)[C@H](O)[C@@H]1O	steady-state kinetics			kcat/Km	42000 M⁻¹ s⁻¹
B8 (bjaI)	CC(C)CC(=O)SCCNC(=O)CCNC(=O)[C@H](O)C(C)(C)COP(=O)(O)OP(=O)(O)OC[C@H]1O[C@@H](n2cnc3c(N)ncnc32)[C@H](O)[C@@H]1OP(=O)(O)O	steady-state kinetics		pH 7.3, together with: 30 µM DCPIP, 331 µM SAM	kcat/Km	21700 ± 5000 M⁻¹ s⁻¹
